{"data": "Published values collected from several papers", "note": "Every numbered part comes from another study and shows a few of its results, in no order.", "sequence of UniProt Q13523 (whole entry, looked up)": "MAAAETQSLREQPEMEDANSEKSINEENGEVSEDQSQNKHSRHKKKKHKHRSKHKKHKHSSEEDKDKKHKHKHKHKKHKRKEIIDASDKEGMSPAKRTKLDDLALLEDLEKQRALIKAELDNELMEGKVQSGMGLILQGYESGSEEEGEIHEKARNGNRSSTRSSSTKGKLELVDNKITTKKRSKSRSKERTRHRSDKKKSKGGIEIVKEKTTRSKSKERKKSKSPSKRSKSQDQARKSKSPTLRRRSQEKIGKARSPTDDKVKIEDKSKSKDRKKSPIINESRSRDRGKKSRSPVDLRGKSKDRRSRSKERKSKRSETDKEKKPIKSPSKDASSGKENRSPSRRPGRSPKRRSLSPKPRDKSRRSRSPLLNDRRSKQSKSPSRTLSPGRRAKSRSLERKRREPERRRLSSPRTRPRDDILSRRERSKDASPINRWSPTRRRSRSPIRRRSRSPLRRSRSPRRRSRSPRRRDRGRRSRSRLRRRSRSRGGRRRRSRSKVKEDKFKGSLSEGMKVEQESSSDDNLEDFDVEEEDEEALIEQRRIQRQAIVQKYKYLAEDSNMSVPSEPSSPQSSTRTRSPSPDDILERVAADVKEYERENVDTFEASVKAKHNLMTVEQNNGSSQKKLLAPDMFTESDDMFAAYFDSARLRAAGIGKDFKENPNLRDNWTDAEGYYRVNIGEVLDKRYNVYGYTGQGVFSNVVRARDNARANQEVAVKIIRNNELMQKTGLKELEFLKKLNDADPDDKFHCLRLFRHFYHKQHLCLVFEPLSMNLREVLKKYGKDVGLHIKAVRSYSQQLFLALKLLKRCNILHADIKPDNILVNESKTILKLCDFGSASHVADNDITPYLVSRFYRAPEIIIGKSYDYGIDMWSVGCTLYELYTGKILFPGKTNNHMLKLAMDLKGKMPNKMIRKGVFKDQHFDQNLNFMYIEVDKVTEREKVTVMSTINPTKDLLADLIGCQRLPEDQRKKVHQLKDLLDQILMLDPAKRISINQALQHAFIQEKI", "sequence of UniProt P51955 (whole entry, looked up)": "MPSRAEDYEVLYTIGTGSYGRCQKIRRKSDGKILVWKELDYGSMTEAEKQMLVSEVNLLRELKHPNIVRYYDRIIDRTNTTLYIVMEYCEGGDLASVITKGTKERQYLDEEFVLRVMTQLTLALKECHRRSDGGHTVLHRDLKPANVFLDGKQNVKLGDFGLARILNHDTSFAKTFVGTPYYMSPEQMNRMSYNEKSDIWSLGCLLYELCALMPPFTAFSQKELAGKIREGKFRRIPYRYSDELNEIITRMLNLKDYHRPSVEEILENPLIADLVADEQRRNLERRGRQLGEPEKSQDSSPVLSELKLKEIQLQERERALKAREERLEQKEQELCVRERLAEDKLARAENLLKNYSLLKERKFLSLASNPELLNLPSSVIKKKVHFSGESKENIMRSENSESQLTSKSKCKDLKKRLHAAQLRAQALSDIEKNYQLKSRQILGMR", "sequence of UniProt O15197 (whole entry, looked up)": "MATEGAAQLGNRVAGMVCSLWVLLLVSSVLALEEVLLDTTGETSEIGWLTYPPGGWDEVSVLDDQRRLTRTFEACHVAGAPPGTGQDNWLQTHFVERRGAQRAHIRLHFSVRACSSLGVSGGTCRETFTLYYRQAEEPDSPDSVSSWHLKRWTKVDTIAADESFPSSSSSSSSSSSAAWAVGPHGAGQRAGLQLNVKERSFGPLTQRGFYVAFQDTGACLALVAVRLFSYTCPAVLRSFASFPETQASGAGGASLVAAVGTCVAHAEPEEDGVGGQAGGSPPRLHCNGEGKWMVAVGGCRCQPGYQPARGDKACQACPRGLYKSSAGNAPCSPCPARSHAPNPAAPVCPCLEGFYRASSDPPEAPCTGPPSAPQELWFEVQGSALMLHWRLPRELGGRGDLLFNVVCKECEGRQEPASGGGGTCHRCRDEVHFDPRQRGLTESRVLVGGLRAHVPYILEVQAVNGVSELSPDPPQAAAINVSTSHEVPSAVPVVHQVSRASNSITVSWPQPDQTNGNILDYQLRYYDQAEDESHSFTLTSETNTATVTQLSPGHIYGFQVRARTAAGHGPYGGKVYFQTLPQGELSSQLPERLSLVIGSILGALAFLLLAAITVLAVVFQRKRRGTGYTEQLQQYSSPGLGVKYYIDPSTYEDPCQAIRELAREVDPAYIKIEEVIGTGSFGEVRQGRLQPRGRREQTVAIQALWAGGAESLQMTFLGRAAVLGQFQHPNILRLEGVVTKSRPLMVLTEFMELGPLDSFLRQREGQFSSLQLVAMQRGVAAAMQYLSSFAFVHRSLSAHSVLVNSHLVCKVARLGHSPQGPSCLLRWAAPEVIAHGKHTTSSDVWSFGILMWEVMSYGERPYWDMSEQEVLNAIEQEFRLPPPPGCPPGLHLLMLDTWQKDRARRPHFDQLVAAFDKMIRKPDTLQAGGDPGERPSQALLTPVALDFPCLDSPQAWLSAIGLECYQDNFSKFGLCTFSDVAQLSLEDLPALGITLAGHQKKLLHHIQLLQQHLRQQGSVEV", "sequence of UniProt Q99759 (whole entry, looked up)": "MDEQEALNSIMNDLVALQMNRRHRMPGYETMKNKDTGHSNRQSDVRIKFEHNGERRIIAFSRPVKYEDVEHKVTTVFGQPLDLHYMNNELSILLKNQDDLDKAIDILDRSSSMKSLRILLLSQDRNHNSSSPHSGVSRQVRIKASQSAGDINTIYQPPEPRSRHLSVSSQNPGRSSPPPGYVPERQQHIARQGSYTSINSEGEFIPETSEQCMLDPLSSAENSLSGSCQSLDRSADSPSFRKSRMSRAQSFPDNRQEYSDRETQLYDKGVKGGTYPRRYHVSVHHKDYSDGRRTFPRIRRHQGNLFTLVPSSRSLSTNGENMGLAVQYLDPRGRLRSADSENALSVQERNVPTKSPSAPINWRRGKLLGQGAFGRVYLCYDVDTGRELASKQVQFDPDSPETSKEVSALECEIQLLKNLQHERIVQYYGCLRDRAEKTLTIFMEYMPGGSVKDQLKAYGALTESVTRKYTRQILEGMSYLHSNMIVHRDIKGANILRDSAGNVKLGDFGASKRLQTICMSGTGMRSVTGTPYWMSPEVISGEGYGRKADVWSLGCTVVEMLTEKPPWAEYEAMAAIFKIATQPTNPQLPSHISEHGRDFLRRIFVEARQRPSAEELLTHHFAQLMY", "sequence of UniProt Q99640 (whole entry, looked up)": "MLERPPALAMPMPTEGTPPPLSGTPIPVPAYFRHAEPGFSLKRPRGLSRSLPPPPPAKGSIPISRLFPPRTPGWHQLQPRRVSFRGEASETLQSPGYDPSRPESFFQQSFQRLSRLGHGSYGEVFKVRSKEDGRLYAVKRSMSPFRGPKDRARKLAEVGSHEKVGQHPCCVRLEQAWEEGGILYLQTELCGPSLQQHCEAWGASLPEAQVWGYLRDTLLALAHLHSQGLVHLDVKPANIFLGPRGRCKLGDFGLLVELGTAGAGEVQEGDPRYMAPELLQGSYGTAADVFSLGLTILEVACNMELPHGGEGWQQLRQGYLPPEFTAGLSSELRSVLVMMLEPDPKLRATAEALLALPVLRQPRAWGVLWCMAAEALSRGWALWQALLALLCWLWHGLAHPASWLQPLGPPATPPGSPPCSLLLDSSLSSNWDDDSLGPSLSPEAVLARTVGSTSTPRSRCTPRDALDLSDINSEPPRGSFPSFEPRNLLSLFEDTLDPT", "sequence of UniProt Q00535 (whole entry, looked up)": "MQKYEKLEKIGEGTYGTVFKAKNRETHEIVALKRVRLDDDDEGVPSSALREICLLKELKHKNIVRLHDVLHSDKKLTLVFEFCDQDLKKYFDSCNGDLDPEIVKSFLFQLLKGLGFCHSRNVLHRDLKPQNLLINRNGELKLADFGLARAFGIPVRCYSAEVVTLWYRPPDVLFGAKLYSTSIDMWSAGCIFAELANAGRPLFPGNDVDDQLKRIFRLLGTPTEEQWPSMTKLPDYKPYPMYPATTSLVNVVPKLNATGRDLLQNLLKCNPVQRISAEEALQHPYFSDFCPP", "sequence of UniProt Q9UIK4 (whole entry, looked up)": "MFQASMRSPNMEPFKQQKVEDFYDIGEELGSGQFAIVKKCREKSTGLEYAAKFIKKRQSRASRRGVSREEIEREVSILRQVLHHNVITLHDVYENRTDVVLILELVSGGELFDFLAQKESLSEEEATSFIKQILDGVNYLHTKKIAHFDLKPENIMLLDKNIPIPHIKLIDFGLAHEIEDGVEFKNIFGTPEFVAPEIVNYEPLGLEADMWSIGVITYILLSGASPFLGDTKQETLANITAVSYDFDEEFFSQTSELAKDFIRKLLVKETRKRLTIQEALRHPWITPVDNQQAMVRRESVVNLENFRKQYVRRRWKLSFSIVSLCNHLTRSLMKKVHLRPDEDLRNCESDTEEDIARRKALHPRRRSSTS", "sequence of UniProt P27361 (whole entry, looked up)": "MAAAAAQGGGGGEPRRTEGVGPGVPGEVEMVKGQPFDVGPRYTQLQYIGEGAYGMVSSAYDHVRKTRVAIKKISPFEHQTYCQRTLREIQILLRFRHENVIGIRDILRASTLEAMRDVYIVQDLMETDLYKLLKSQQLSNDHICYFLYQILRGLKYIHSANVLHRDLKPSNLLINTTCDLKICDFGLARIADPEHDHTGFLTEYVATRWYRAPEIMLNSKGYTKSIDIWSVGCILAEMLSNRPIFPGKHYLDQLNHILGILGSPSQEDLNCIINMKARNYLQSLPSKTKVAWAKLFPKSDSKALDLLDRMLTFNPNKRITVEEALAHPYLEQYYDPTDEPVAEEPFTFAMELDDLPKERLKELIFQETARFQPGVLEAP", "sequence of UniProt P11802 (whole entry, looked up)": "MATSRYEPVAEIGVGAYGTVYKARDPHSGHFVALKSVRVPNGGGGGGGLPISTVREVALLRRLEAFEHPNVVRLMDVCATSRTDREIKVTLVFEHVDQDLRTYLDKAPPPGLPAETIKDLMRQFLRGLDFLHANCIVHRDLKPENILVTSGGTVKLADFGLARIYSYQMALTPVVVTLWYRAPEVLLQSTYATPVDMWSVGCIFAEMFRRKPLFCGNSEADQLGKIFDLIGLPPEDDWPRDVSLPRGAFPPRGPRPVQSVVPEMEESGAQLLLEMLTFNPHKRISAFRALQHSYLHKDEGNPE"}
{"data": "Sample 1", "SMILES": "CNC(=O)Nc1ccc2c(c1)[C@@]1(CC2)OC(=O)N(CC(=O)N(Cc2ccc(F)cc2)[C@@H](C)C(F)(F)F)C1=O", "observed": "cell-free assay", "method": "competition with immobilised ligand", "concentration": "1 µM"}
{"target": "CSF1R (Homo sapiens, UniProt P07333)", "remaining binding": "98%"}
{"target": "EPHB6 (Homo sapiens, UniProt O15197)", "remaining binding": "0%"}
{"target": "Tyrosine-protein kinase JAK1, JH2 (JAK1, Homo sapiens, UniProt P23458)", "remaining binding": "85%"}
{"target": "MAPK3 (Homo sapiens, UniProt P27361)", "remaining binding": "100%"}
{"target": "LATS1 (Homo sapiens, UniProt O95835)", "remaining binding": "59%"}
{"target": "Tyrosine-protein kinase ABL1, non-phosphorylated (ABL1, Homo sapiens, UniProt P00519, F317I)", "remaining binding": "78%"}
{"target": "ACVR2B (Homo sapiens, UniProt Q13705)", "remaining binding": "100%"}
{"target": "CSNK2A1 (Homo sapiens, UniProt P68400)", "remaining binding": "60%"}
{"target": "PRKACA (Homo sapiens, UniProt P17612)", "remaining binding": "99%"}
{"target": "PKMYT1 (Homo sapiens, UniProt Q99640)", "remaining binding": "92%"}
{"target": "PRPF4B (Homo sapiens, UniProt Q13523)", "remaining binding": "90%"}
{"target": "BRAF (Homo sapiens, UniProt P15056)", "remaining binding": "100%"}
{"target": "ANKK1 (Homo sapiens, UniProt Q8NFD2)", "remaining binding": "61%"}
{"target": "FLT3 (Homo sapiens, UniProt P36888, N841I)", "remaining binding": "100%"}
{"target": "Tyrosine-protein kinase ABL1, non-phosphorylated (ABL1, Homo sapiens, UniProt P00519, T315I)", "remaining binding": "86%"}
{"data": "Sample 2", "Compound": "CC(C)n1cnc(-c2ccc(F)cc2)c1-c1ncc(C(=O)Nc2ccc(N3CCN(C)CC3)cc2)[nH]1", "method": "phase 2a clinical trial", "host": "idiopathic pulmonary fibrosis patients"}
{"test": "measured: neoplasms (SOC)", "setting": "60 mg once daily, grade 5 maximum intensity", "patients with TEAEs [%]": 0}
{"test": "measured: neoplasms (SOC)", "setting": "60 mg once daily, grade 3 maximum intensity", "patients with TEAEs [%]": 0}
{"test": "measured: reproductive and breast disorders", "setting": "30 mg once daily, grade 2 maximum intensity", "patients with TEAEs [%]": 0}
{"test": "measured: neutrophil count increased", "setting": "dose not given, grade 1, all drug arms", "scale": "reference: patients", "patients with TEAEs [%]": 1}
{"test": "measured: investigations (SOC)", "setting": "dose not given, grade 2, all drug arms", "scale": "reference: patients", "patients with TEAEs [%]": 3}
{"test": "measured: reproductive and breast disorders", "setting": "dose not given, grade 4, all drug arms", "patients with TEAEs [%]": 0}
{"test": "measured: reproductive and breast disorders", "setting": "60 mg once daily, grade 3 maximum intensity", "patients with TEAEs [%]": 0}
{"test": "measured: reproductive and breast disorders", "setting": "30 mg once daily, grade 5 maximum intensity", "patients with TEAEs [%]": 0}
{"data": "Sample 3", "host": "mouse", "sample": "microsomes or S9", "concentration": "2 µM", "time": "0.5 h"}
{"SMILES": "O=C(NCc1ccncc1)c1cc(-c2ccc(Br)s2)n[nH]1", "remaining compound": "50.6%"}
{"SMILES": "CNc1ccc(Nc2ccc(Cl)c(C#N)n2)cn1", "remaining compound": "0.00595%"}
{"SMILES": "COc1ccc(Cl)cc1NC(=O)N1Cc2c(sc3c2CCCC3)-n2cccc2C1c1cccc(F)c1 (stereo not drawn)", "remaining compound": "33.9%"}
{"SMILES": "COC(=O)c1cccc2c1CN(c1cccc(C(=O)OC(C)(C)C)c1)C2=O", "remaining compound": "78.6%"}
{"SMILES": "CC(C)n1nc(-c2ccc3nc(N)sc3c2)c2c(N)ncnc21", "remaining compound": "80.2%"}
{"SMILES": "Cn1c(Nc2ccccc2Cl)cc(=O)n(C)c1=O", "remaining compound": "60.2%"}
{"SMILES": "C[C@@H](NC(=O)c1ccc(F)cc1)[C@H](O)c1ccccc1", "remaining compound": "60.8%"}
{"SMILES": "CC1CCC(NS(=O)(=O)CC(=O)NC(C)CCc2ccc(Br)cc2)CC1 (stereo not drawn)", "remaining compound": "2.17%"}
{"SMILES": "CCCCN(C)Cc1cc(=O)oc2cc(C)c(O)cc12", "remaining compound": "78.4%"}
{"SMILES": "COC(=O)c1nc(N2CCN(C(=O)c3ccco3)CC2)c2scc(-c3ccc(C(=O)O)cc3)c2n1", "remaining compound": "> 100%"}
{"SMILES": "Cn1nc2n(c1=O)CCC(NC(=O)CCC1CCCCC1)CC2 (stereo not drawn)", "remaining compound": "74.6%"}
{"SMILES": "O=S1(=O)c2ccccc2C(O)C(Cc2ccccc2O)N1Cc1cccnc1 (stereo not drawn)", "remaining compound": "8.99%"}
{"SMILES": "O=c1[nH]nc2c3c(nc(-c4ccncc4)n12)CCCC3", "remaining compound": "69.3%"}
{"SMILES": "Cc1cc(C(=O)Nc2nnc3n2CCCC3)n(C)n1", "remaining compound": "70.9%"}
{"SMILES": "Cc1ccc(S(=O)(=O)N(CC(=O)c2ccccc2)c2nc3nc(C)cc(C)n3n2)cc1", "remaining compound": "10.9%"}
{"data": "Sample 4", "SMILES": "Nc1nccc(-c2c(-c3ccc(F)cc3)ncn2C2CCNCC2)n1", "observed": "enzyme activity", "action": "inhibitor", "concentration": "0.5 µM", "reference": "control"}
{"target": "GRK3 (Homo sapiens, UniProt P35626)", "remaining activity": "97.6%"}
{"target": "PRKCA (Homo sapiens, UniProt P17252)", "remaining activity": "89.1%"}
{"target": "CHEK2 (Homo sapiens, UniProt O96017)", "remaining activity": "101%"}
{"target": "cGMP-dependent protein kinase 1, isoform beta (PRKG1, Homo sapiens, UniProt Q13976)", "remaining activity": "88.2%"}
{"target": "Tyrosine-protein kinase Lyn, isoform B (LYN, Homo sapiens, UniProt P07948)", "remaining activity": "97.5%"}
{"target": "STK10 (Homo sapiens, UniProt O94804)", "remaining activity": "90.3%"}
{"target": "IKBKE (Homo sapiens, UniProt Q14164)", "remaining activity": "99.5%"}
{"target": "NEK2 (Homo sapiens, UniProt P51955)", "remaining activity": "103%"}
{"target": "PRKACA (Homo sapiens, UniProt P17612)", "remaining activity": "83%"}
{"target": "DAPK1 (Homo sapiens, UniProt P53355)", "remaining activity": "88.2%"}
{"target": "TGFBR2 (Homo sapiens, UniProt P37173)", "remaining activity": "119%"}
{"target": "OXSR1 (Homo sapiens, UniProt O95747)", "remaining activity": "101%"}
{"target": "TGFBR1 (Homo sapiens, UniProt P36897)", "remaining activity": "102%"}
{"target": "Cyclin-dependent kinase 5, with p25 (CDK5, Homo sapiens, UniProt Q00535)", "remaining activity": "95.4%"}
{"target": "IKBKB (Homo sapiens, UniProt O14920)", "remaining activity": "104%"}
{"target": "Protein kinase C beta type, isoform beta-I (PRKCB, Homo sapiens, UniProt P05771)", "remaining activity": "91%"}
{"target": "MAP3K3 (Homo sapiens, UniProt Q99759)", "remaining activity": "101%"}
{"target": "STK39 (Homo sapiens, UniProt Q9UEW8)", "remaining activity": "93.5%"}
{"target": "STK11 (Homo sapiens, UniProt Q15831)", "remaining activity": "89.1%"}
{"target": "Cyclin-dependent kinase 4, with cyclin D1 (CDK4, Homo sapiens, UniProt P11802)", "remaining activity": "99.9%"}
{"target": "CAMK2D (Homo sapiens, UniProt Q13557)", "remaining activity": "100%"}
{"target": "DAPK2 (Homo sapiens, UniProt Q9UIK4)", "remaining activity": "94.1%"}
{"note": "A few entries again (sample 4):"}
{"target": "OXSR1 (Homo sapiens, UniProt O95747)", "remaining activity": "101%"}
{"target": "TGFBR1 (Homo sapiens, UniProt P36897)", "remaining activity": "102%"}
{"target": "Cyclin-dependent kinase 5, with p25 (CDK5, Homo sapiens, UniProt Q00535)", "remaining activity": "95.4%"}
{"target": "IKBKB (Homo sapiens, UniProt O14920)", "remaining activity": "104%"}
{"target": "Protein kinase C beta type, isoform beta-I (PRKCB, Homo sapiens, UniProt P05771)", "remaining activity": "91%"}
{"target": "MAP3K3 (Homo sapiens, UniProt Q99759)", "remaining activity": "101%"}
{"target": "STK39 (Homo sapiens, UniProt Q9UEW8)", "remaining activity": "93.5%"}
